Results from different studies.
Each line is one published result; not all experiments were run side by side.

| Compound | cell line | effect on | technique | time | setting | GI50 [µM] |
| --- | --- | --- | --- | --- | --- | --- |
| O=C(/C=C/C=C/C=C/C1CCCCC1)NC1=C[C@@](O)(/C=C/C=C/C=C/C(=O)NC2=C(O)CCC2=O)[C@@H]2O[C@@H]2C1=O | OVSAHO | cell growth | CellTiter-Glo | 78 h |  | 12.3 |
| Cn1cncc1C1=CN(c2ncnc3[nH]cnc23)CCS1 | 786-0 |  |  |  | renal cancer cell line | 14.8 |
| CCc1n(Cc2ccc3ccccc3n2)cc[n+]1Cc1ccc2ccccc2c1 | NCI60 NSCLC cell lines | cell growth |  |  |  | ≤ 3.93 |
| Cc1c(C(=O)O)ccc2c3n(nc12)[C@@H]1[C@H](C3)N(CC2CC2)[C@@]2(C(=O)Nc3cc(Cl)ccc32)[C@H]1c1cccc(Cl)c1F | DK-MG (MDM2-amplified) | cell growth | alamarBlue | 120 h |  | 0.003 |
| CCCc1n(Cc2ccc3ccccc3n2)cc[n+]1Cc1ccc2ccccc2n1 | NCI60 NSCLC cell lines | cell growth |  |  |  | ≤ 12.5 |
| COc1ccc(C#N)cc1-c1c[nH]c2ncc(-c3cncc(C(=O)N(C)C)c3)cc12 | Ba/F3 BCR-ABL T315I | cell proliferation |  | 72 h |  | > 1 |
| C=CC(=O)N1CCC[C@@H](n2nc(-c3ccc(Oc4ccccc4)cc3)c3c(N)ncnc32)C1 | REC-IKZF1^KO | cell growth |  | 72 h |  | 16.3 |
| C=CS(=O)(=O)Nc1ccc(OC)c(-c2c[nH]c3ncc(-c4cncc(C(=O)N(C)C)c4)cc23)c1 | Ba/F3 BCR-ABL T315I | cell proliferation |  | 72 h |  | > 1 |
| CCCc1n(Cc2ccc3ccccc3n2)cc[n+]1Cc1ccc2ccccc2c1 | NCI60 NSCLC cell lines | cell growth |  |  |  | ≤ 3.93 |

Excerpt of the above:
| Compound | cell line | effect on | technique | time | setting | GI50 [µM] |
| --- | --- | --- | --- | --- | --- | --- |
| CCCc1n(Cc2ccc3ccccc3n2)cc[n+]1Cc1ccc2ccccc2n1 | NCI60 NSCLC cell lines | cell growth |  |  |  | ≤ 12.5 |
